Results of several laboratories.
Compare with care: the assays were run in different laboratories.
ROPGAP3: ROPGAP3 (Arabidopsis thaliana, UniProt Q8GYY5)
Chain of UniProt Q8GYY5 (whole entry, looked up): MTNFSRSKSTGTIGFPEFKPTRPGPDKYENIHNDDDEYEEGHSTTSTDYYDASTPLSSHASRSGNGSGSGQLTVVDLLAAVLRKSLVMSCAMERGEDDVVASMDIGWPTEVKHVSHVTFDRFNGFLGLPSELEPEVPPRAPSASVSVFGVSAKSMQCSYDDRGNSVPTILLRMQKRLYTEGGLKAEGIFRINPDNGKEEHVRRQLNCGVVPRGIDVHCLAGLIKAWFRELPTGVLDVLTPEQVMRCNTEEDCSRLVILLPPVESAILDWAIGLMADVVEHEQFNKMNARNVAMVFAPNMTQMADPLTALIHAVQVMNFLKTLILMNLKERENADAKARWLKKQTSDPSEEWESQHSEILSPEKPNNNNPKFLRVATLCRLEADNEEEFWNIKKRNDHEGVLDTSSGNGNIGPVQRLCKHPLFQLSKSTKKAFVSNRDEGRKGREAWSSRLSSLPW
B1: large T antigen (SV40, UniProt P03070); chain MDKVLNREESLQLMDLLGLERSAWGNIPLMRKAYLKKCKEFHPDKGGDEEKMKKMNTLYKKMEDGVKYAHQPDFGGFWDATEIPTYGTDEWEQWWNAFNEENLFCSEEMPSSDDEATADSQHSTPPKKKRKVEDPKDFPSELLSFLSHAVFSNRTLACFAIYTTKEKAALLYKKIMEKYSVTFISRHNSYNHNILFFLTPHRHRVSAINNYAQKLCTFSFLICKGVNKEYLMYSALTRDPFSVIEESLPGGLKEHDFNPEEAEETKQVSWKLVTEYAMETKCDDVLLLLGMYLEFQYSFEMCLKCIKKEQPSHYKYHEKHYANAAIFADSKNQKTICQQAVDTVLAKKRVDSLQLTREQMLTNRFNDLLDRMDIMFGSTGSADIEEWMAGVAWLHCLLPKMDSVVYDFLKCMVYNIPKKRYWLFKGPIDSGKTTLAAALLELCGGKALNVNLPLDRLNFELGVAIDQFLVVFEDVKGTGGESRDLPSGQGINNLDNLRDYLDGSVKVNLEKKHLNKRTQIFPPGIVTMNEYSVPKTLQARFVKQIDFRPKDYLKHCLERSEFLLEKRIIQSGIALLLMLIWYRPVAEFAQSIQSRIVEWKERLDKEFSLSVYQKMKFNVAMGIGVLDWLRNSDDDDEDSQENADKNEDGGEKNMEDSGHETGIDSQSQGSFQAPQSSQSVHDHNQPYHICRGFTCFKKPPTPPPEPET
B2: PIN2 167-485 (Arabidopsis thaliana, UniProt Q9LU77); chain ETAGSITSFRVDSDVISLNGREPLQTDAEIGDDGKLHVVVRRSSAASSMISSFNKSHGGGLNSSMITPRASNLTGVEIYSVQSSREPTPRASSFNQTDFYAMFNASKAPSPRHGYTNSYGGAGAGPGGDVYSLQSSKGVTPRTSNFDEEVMKTAKKAGRGGRSMSGELYNNNSVPSYPPPNPMFTGSTSGASGVKKKESGGGGSGGGVGVGGQNKEMNMFVWSSSASPVSEANAKNAMTRGSSTDVSTDPKVSIPPHDNLATKAMQNLIENMSPGRKGHVEMDQDGNNGGKSPYMGKKGSDVEDGGPGPRKQQMPPASV
B3: Cbx1 (Mus musculus, UniProt P83917); chain MGKKQNKKKVEEVLEEEEEEYVVEKVLDRRVVKGKVEYLLKWKGFSDEDNTWEPEENLDCPDLIAEFLQSQKTAHETDKSEGGKRKADSDSEDKGEESKPKKKKEESEKPRGFARGLEPERIIGATDSSGELMFLMKWKNSDEADLVPAKEANVKCPQVVISFYEERLTWHSYPSEDDDKKDDKN
B4: NYV1 (Saccharomyces cerevisiae, UniProt Q12255); chain MKRFNVSYVEVIKNGETISSCFQPFQKNENYGTITSANEQITPVIFHNLIMDMVLPKVVPIKGNKVTKMSMNLIDGFDCFYSTDDHDPKTVYVCFTLVDMPKILPIRILSGLQEYESNATNELLSSHVGQILDSFHEELVEYRNQTLNSSGNGQSSNGNGQNTISDIGDATEDQIKDVIQIMNDNIDKFLERQERVSLLVDKTSQLNSSSNKFRRKAVNIKEIMWWQKVKNITLLTFTIILFVSAAFMFFYLW
B5: atpD 1-464 (Acinetobacter baumannii, UniProt A3M144); chain MSSGRIIQIIGAVIDVEFERTSVPKIYDALQVDGTETTLEVQQQLGDGVVRTIAMGSTEGLKRGLTVTSTNAPISVPVGTATLGRIMDVLGRPIDEAGPVATEERLPIHRQAPSYAEQAASTDLLETGIKVIDLLCPFAKGGKVGLFGGAGVGKTVNMMELINNIAKAHSGLSVFAGVGERTREGNDFYHEMKDSNVLDKVAMVYGQMNEPPGNRLRVALTGLTMAEYFRDEKDENGKGRDVLLFVDNIYRYTLAGTEVSALLGRMPSAVGYQPTLAEEMGVLQERITSTKSGSITSIQAVYVPADDLTDPSPATTFAHLDATVVLSRDIASSGIYPAIDPLDSTSRQLDPLVVGQEHYEIARAVQNVLQRYKELKDIIAILGMDELAEEDKLVVYRARKIQRFFSQPFHVAEVFTGAPGKLVPLKETIRGFKGLLAGEYDHIPEQAFYMVGGIDEVIAKAEKL
B6: rplK uL11 (Mycobacterium smegmatis, UniProt A0QS45); chain MAPKKKVAGLIKLQIQAGQANPAPPVGPALGQHGVNIMEFCKAYNAATESQRGNVIPVEITVYEDRSFTFALKTPPAAKLLLKAAGVQKGSGEPHKTKVAKVTWDQVREIAETKKADLNANDIDAAAKIIAGTARSMGITVE
B7: NuoM (Mycolicibacterium smegmatis, UniProt A0QU24); chain MVSTFPWLTVLWAVPVVGAAVVILLPAAQQVLAKWLALAVSVLTLAVTAVVAIGFDPAAAQYQFVESHRWIPSFGTGYILGVDGIALALVVLTAVLVPLLIIAGWNDASRQTGLAGRSVQAYLALTLAVEGMVLMSLVALDILLFYVFFEAMLIPMYFLIGGFGGENRSRAAVKFLLYNLFGGLIMLAAVIGLYVVTAGSDAFAAGTFDFREIVAAVSSGEFAVNPAIMNFLFLGFMFAFAVKAPLWPFHRWLPDAAVEATPASAVLMMAVMDKVGTFGMLRYCLQLFPDASTYFRPVVITLAAIGIVYGAVLAIGQTDVMRLIAYTSISHFGFIILGIFVMTSQGQSGSTLYMINHGISTAALFLIAGFLVSRRGSRLIDSYGGVQKVAPVLAGTFLVAGLATLSLPGLAPFISEFLVLIGTFTRYPVVAVFAATALVLSAVYILWTYQRMMTGPVRDGIGDGDRPVRDLVPRELVVVAPLLALLLVLGIYPKPALDVINPAVEHTLTTIGQTDPEPTVPPTIAEGAR
B8: ATG13 567-695 (Saccharomyces cerevisiae, UniProt Q06628); chain GGNSSTSALNSRRNSLDKSSNKQGMSGLPPIFGGESTSYHHDNKIQKYNQLGVEEDDDDENDRLLNQMGNSATKFKSSISPRSIDSISSSFIKSRIPIRQPYHYSQPTTAPFQAQAKFHKPANKLIDNG
B9: NuoB (Mycolicibacterium smegmatis, UniProt A0QU35); chain MGLEERLPGGILLSTVETVAGYVRKGSLWPATFGLACCAIEMMSTAGPRFDIARFGMERFSATPRQADLMIVAGRVSQKMAPVLRQIYDQMVEPKWVLAMGVCASSGGMFNNYAVVQGVDHVVPVDIYLPGCPPRPEMLLHAILKLHDKIQQMPLGVNREEAIREAEQAALAVPPTIELKGLLR
B10: ROP6 (Arabidopsis thaliana, UniProt Q38912); chain MSASRFIKCVTVGDGAVGKTCLLISYTSNTFPTDYVPTVFDNFSANVIVDGNTINLGLWDTAGQEDYNRLRPLSYRGADVFLLAFSLVSKASYENVSKKWVPELRHYAPGVPIILVGTKLDLRDDKQFFAEHPGAVPISTAQGEELKKLIGAPAYIECSAKTQQNVKAVFDAAIKVVLQPPKNKKKKKRKSQKGCSIL
B11: NALCN DII-DIII linker 698-772 (Homo sapiens); chain WGEDNKYIDQKLRKSVFSIRARNLLEKETAVTKILRACTRQRMLSGSFEGQPAKERSILSVQHHIRQERRSLRHGSN
B12: NuoC (Mycolicibacterium smegmatis, UniProt A0QU34); chain MSTSNGSANGTNGVGLPRGDEPEIIAVRRGMFGNRDTGDTSGYGRLVRPVALPGSTPRPYGGYFDAVMDRLAEVLGEERYAMSIERVVVYRDQLTIEVSRVQLPAVASVLRDDPDLRFELCLGVSGVHYPEDTGRELHAVYPLMSITHNRRIQLEVAAPDADPHIPSLYAVYPTTDWHERETYDFFGIIFDGHPSLTRIEMPDDWEGHPQRKDYPLGGIPVEYHGAQIPPPDQRRSYS
B13: BAG4 376-457 (Homo sapiens, UniProt O95429); chain TPPSIKKIIHVLEKVQYLEQEVEEFVGKKTDKAYWLLEEMLTKELLELDSVETGGQDSVRQARKEAVCKIQAILEKLEKKGL
B14: PIN3 167-479 (Arabidopsis thaliana, UniProt Q9S7Z8); chain ETAASIVSFKVESDVVSLDGHDFLETDAEIGDDGKLHVTVRKSNASRRSFCGPNMTPRPSNLTGAEIYSLSTTPRGSNFNHSDFYNMMGFPGGRLSNFGPADMYSVQSSRGPTPRPSNFEENCAMASSPRFGYYPGGGAGSYPAPNPEFSSTTTSTANKSVNKNPKDVNTNQQTTLPTGGKSNSHDAKELHMFVWSSNGSPVSDRAGLNVFGGAPDNDQGGRSDQGAKEIRMLVPDQSHNGETKAVAHPASGDFGGEQQFSFAGKEEEAERPKDAENGLNKLAPNSTAALQSKTGLGGAEASQRKNMPPASVM
Chain of UniProt A0QU29 (whole entry, looked up): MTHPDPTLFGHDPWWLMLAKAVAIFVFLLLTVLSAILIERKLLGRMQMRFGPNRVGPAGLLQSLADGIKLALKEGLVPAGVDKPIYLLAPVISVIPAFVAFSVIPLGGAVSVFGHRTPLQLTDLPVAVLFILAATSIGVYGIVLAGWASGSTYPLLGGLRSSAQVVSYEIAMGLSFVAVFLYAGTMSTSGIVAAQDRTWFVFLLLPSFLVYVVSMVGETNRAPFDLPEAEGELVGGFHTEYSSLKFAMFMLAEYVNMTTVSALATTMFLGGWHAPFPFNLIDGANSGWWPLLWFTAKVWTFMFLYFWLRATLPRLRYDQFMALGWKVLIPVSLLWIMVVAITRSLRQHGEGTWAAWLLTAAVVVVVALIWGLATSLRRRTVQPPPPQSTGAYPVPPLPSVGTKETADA
Chain of UniProt P63151 (whole entry, looked up): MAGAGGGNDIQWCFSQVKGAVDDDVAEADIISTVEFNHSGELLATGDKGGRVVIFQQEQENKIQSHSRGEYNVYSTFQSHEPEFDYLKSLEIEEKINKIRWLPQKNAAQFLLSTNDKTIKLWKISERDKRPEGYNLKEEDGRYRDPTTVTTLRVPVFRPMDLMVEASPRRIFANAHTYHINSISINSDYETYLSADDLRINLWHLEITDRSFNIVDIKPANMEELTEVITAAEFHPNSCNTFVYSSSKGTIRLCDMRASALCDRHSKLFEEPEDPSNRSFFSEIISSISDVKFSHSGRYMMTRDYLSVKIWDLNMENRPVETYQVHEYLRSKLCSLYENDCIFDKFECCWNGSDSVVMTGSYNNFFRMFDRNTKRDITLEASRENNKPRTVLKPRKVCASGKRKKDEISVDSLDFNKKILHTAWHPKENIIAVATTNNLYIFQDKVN
Chain of UniProt P19438 (whole entry, looked up): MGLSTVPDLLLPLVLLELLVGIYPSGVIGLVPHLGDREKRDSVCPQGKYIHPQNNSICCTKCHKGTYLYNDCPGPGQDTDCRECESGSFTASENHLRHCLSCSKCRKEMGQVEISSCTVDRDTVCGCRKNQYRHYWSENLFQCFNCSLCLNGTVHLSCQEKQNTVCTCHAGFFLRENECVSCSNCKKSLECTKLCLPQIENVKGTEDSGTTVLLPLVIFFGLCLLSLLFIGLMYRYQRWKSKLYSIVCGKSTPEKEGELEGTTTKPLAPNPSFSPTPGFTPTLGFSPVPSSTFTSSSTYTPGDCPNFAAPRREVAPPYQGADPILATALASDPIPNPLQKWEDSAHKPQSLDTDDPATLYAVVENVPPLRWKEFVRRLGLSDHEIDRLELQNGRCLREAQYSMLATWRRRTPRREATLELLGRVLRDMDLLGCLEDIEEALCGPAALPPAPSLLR
Chain of UniProt P41811 (whole entry, looked up): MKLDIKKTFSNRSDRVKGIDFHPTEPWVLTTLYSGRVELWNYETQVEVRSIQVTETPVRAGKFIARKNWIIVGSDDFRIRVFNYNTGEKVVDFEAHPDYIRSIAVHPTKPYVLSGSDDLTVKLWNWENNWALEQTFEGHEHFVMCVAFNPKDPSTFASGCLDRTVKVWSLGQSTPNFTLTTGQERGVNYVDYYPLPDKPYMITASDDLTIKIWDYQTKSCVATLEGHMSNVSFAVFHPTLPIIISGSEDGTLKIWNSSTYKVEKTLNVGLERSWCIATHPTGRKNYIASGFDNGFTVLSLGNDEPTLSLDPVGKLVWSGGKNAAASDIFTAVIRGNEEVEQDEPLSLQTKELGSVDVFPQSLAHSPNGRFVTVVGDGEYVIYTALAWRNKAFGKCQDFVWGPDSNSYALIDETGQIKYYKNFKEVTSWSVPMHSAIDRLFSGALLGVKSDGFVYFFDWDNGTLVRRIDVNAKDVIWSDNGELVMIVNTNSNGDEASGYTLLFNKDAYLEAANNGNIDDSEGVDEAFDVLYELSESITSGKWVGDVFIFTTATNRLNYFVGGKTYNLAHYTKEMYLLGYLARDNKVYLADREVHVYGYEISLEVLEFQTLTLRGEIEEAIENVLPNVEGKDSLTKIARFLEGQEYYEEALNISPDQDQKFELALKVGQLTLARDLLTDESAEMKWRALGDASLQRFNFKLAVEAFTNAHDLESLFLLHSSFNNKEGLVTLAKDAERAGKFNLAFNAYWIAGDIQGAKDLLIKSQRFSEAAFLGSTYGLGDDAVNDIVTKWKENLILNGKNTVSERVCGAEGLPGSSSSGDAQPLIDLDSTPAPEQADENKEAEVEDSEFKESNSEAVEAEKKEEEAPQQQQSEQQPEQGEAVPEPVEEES
Chain of UniProt P01027 (whole entry, looked up): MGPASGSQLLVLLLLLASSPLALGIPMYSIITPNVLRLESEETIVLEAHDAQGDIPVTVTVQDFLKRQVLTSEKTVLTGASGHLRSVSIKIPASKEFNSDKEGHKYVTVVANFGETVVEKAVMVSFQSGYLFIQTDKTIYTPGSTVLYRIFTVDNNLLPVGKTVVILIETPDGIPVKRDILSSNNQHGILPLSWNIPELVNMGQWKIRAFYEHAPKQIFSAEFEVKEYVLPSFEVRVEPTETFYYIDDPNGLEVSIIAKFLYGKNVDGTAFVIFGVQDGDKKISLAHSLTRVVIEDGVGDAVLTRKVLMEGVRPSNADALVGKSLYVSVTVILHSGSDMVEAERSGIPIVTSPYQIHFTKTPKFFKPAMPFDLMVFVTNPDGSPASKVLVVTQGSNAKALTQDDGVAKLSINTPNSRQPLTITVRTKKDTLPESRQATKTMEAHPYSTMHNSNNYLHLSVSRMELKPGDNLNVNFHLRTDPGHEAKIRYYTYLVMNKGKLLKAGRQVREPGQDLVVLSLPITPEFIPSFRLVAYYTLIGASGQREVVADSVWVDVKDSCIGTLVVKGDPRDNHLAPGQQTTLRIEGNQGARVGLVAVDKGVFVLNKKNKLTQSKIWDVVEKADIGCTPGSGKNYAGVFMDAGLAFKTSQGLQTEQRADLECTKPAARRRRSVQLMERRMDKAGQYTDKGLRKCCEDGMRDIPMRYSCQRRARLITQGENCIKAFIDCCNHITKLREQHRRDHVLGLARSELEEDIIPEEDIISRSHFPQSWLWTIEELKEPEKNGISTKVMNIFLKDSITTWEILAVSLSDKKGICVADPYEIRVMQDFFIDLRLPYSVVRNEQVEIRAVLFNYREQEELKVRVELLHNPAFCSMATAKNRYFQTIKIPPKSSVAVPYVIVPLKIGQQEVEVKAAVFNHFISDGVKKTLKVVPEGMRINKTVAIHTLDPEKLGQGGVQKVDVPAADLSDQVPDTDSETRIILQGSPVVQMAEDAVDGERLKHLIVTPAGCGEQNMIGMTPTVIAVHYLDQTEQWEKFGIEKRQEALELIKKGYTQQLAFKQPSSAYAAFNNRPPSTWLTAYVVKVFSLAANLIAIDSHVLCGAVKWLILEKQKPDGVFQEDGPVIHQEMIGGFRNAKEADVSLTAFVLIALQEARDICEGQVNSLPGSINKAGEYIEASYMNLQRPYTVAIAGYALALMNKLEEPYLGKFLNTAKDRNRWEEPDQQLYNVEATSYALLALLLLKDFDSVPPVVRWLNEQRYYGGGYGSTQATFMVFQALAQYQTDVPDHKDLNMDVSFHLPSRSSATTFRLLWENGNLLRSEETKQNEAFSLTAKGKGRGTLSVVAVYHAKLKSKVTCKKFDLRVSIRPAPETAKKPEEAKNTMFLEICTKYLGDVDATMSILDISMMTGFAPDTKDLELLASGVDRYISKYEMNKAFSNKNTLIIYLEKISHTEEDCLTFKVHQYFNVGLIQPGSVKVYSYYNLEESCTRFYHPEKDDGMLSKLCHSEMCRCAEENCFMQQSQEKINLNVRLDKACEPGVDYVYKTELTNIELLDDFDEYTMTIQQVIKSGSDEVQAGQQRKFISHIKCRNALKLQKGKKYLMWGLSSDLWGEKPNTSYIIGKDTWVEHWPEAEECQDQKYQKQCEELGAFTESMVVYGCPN
Chain of UniProt P05205 (whole entry, looked up): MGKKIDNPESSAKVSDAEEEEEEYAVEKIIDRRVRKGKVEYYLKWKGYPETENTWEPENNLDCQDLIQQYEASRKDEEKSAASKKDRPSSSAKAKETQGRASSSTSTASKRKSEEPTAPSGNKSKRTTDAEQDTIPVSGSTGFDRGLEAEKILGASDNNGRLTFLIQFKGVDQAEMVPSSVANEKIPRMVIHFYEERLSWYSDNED
Chain of UniProt P0AF16 (whole entry, looked up): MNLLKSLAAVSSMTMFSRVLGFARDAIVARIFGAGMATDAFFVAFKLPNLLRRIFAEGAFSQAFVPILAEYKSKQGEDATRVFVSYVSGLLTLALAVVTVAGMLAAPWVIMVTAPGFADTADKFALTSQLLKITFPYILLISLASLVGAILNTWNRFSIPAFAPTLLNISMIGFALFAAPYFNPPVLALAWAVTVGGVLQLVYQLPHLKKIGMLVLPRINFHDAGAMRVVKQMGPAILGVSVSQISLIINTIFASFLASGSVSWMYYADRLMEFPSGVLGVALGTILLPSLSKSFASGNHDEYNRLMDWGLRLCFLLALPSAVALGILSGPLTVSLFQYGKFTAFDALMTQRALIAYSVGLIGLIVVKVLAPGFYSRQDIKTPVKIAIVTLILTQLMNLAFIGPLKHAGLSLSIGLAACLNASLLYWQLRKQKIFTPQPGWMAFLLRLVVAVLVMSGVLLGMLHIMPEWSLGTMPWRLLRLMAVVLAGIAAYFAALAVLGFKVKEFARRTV

| Molecule | target or system | assay | test system | setting | how to read | measurement | value |
| --- | --- | --- | --- | --- | --- | --- | --- |
| B1 (large T antigen) | TOP1 (Homo sapiens, UniProt P11387) | ELISA | – | – | – | binding | binds |
| B2 (PIN2 167-485) | ROPGAP3 | pull-down | – | in vitro | – | binding | binds |
| B3 (Cbx1) | HP1a (Drosophila melanogaster, UniProt P05205) | cross-linking | – | – | – | binding | binds |
| B4 (NYV1) | VAM3 (Saccharomyces cerevisiae, UniProt Q12241) | co-IP | – | – | – | binding | binds |
| PPP2R2A (Homo sapiens, UniProt P63151) | ARPP19 L53A (Homo sapiens, UniProt P56211) | co-IP | HeLa | – | reference: wild-type ARPP19, higher = more binding | binding | < 25 % vs wt |
| B5 (atpD 1-464) | atpA 1-514 (Acinetobacter baumannii, UniProt A3M142) | cryo-EM | – | – | – | binding | binds |
| B6 (rplK uL11) | hflX (Mycobacterium smegmatis, UniProt A0QVY1) | cryo-EM | – | – | – | binding | binds |
| KLLITIHDRKEFAKFEEERARAKWDTANNPLYKEATSTFTNITYRGT (ITGB3 742-788 (Homo sapiens, UniProt P05106)) | TLN1 head 1-405 K306Q/E269A/Y270A/del139-168 (UniProt P26039) | pull-down | – | GST-β3 tail | – | binding | binds |
| C3a (Mus musculus, UniProt P01027) | C3ar1 (Mus musculus, UniProt O09047) | cryo-EM | – | – | – | binding | binds |
| KTSHDD (S residues 1348-1353 (HCoV-OC43)) | SEC27 1-301 (Saccharomyces cerevisiae, UniProt P41811) | crystal structure | peptide | – | – | binding | binds |
| B7 (NuoM) | nuoL (Mycolicibacterium smegmatis, UniProt A0QU25) | cryo-EM | – | – | – | binding | binds |
| LQLQKGSDTEAQCE (INTS3 584-597; pS590/pT592) | NBN 1-334 S118A (Homo sapiens, UniProt O60934) | ITC | peptide | – | – | binding | binds |
| B8 (ATG13 567-695) | VAC8 1-578 L31R (Saccharomyces cerevisiae, UniProt P39968) | pull-down | – | – | – | binding | binds |
| B9 (NuoB) | NuoH (Mycolicibacterium smegmatis, UniProt A0QU29) | cryo-EM | – | – | – | binding | binds |
| ptsH fragment T16A (Vibrio cholerae) (sequence not shown) | fruR fragment (Vibrio cholerae) | native gel | – | – | – | binding | binds |
| MKYIINLAFCVLLLVAGDSIAYRVSQYLAPLVDTFTK (lys) | murJ 2-511 (Escherichia coli, UniProt P0AF16) | cryo-EM | – | – | – | binding | binds |
| aspterric acid | – | – | Arabidopsis thaliana Col-0 seeds | 100 µg/mL, seed germination | – | hypocotyl length | 0.01 cm |
| B10 (ROP6) | ROPGAP3 | pull-down | – | in vitro | – | binding | binds |
| insulin human | – | measured: GLB1 mRNA | uninfected mouse, brain | i.p., dose not given | reference: PBS | fold change | 0.992 |
| MSI2 (Arabidopsis thaliana, UniProt O22468) | HAG2 (Arabidopsis thaliana, UniProt Q9FJT8) | pull-down | – | – | – | binding | binds |
| B11 (NALCN DII-DIII linker 698-772) | STX1A/SNAP25 (Homo sapiens) | SEC | peptide | – | – | binding | binds |
| B12 (NuoC) | nuoG (Mycolicibacterium smegmatis, UniProt A0QU30) | cryo-EM | – | – | – | binding | binds |
| B13 (BAG4 376-457) | TNFRSF1A 356-441 (Homo sapiens, UniProt P19438) | fluorescence polarisation | – | – | – | binding | binds |
| B14 (PIN3 167-479) | ROPGAP3 | pull-down | – | 4 °C | – | binding | binds |
| DNIKHVPGGGSVQIVYKPV (MAPT 295-313 (Homo sapiens, UniProt P10636-8)) | MAPT 255-441 (Homo sapiens, UniProt P10636-8) | ThT fluorescence, TEM | peptide | – | – | binding | binds |

Repeated from above:
| Molecule | target or system | assay | test system | setting | how to read | measurement | value |
| --- | --- | --- | --- | --- | --- | --- | --- |
| B9 (NuoB) | NuoH (Mycolicibacterium smegmatis, UniProt A0QU29) | cryo-EM | – | – | – | binding | binds |
| KTSHDD (S residues 1348-1353 (HCoV-OC43)) | SEC27 1-301 (Saccharomyces cerevisiae, UniProt P41811) | crystal structure | peptide | – | – | binding | binds |
| insulin human | – | measured: GLB1 mRNA | uninfected mouse, brain | i.p., dose not given | reference: PBS | fold change | 0.992 |
